Experimental data of several laboratories.
Numbered parts are unrelated; each lists some results of a single study.

Sample 1 — method: protein-binding microarray; molecule type: double-stranded DNA, one strand shown; matrix: in vitro; concentration: 2200 nM top; notes: 60-bp whole probe; together with: salmon DNA 0.4 mg/ml; reference: random background probes; reading: higher = stronger binding
Target: Interferon regulatory factor 7, full length, phosphomimetic (IRF7, Homo sapiens, UniProt Q92985, residues 1-503, S471D/S472D/S475D/S476D/S477D/S483D/S484D/S487D)
Sequence of UniProt Q92985 (whole entry, unmodified, looked up): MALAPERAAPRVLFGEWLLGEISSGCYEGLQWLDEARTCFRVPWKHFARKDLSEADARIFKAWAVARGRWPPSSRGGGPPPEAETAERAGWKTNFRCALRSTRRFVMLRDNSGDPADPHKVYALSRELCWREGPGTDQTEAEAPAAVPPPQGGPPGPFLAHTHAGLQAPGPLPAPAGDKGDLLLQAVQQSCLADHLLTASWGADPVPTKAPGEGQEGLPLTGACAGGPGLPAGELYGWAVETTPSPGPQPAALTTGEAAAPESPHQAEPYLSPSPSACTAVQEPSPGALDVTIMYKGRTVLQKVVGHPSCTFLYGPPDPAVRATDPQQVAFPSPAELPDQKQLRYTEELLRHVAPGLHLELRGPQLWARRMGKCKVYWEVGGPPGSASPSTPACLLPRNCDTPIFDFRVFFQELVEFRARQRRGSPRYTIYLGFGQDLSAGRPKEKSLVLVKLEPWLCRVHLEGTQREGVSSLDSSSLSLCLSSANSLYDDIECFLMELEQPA
All sequences stand within: GCCTAGCAC … GTGCTAGGTCTTGATTCGCTTGACGCTGCTG
For `GACGATTTCAGTCTCGAGAA`, “fitted relative affinity” read 0.785 z-score.
Under “fitted relative affinity”, `GACGAATCCAGTTTCGAGAC` is recorded as 3.59 z-score.
For `GAATTTCCCACTTTCACTTC`, “fitted relative affinity” read 8.68 z-score.
Under “fitted relative affinity”, `TCAGTTCTTAGCTTGGGACT` is recorded as 0.869 z-score.
`CCCTTTTAAGTTCTCTGAAG`: “fitted relative affinity” 1.21 z-score.

Sample 2 — method: universal PBM; molecule type: double-stranded DNA, one strand shown; matrix: in vitro; concentration: not given; reading: higher = stronger binding
Target: Sal-like protein 4, full length isoform B (SALL4, Homo sapiens, UniProt Q9UJQ4-2, residues 1-616)
Notes: 8-mer, flanks averaged, mean of replicates
Target sequence (chain): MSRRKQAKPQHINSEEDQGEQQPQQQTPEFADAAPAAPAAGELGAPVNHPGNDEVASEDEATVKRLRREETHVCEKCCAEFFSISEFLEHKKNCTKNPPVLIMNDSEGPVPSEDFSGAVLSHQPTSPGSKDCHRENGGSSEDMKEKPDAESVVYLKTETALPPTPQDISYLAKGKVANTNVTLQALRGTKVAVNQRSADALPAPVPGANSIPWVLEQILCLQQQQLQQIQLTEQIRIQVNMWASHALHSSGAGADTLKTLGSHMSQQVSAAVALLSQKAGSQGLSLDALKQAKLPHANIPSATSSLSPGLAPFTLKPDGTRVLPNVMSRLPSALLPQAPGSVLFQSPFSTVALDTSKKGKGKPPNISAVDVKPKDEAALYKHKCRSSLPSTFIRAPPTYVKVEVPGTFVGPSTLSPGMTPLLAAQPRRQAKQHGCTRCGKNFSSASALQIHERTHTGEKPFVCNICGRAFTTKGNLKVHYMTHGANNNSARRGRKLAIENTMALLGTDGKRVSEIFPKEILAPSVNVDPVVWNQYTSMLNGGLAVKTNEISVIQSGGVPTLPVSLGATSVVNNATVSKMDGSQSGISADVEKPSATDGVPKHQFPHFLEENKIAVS
`TCGCATCA` gave an E-score of -0.00213.
For `CCTTGTAC`, the E-score was 0.0904.
`GTTCATTA` has an E-score of 0.166.
`AAGCACCC` has an E-score of -0.255.
The E-score of `ATGTAAAT` is reported as 0.332.

Sample 3 — method: competition protein-binding microarray; molecule type: double-stranded DNA, one strand shown; matrix: in vitro; concentration: 2 µM; together with: Pho4 competitor, 0.05 µM; reading: higher = stronger binding; all sequences stand within: … GTCTTGATTCGCTTGACGCTGCTG
Target: Centromere-binding protein 1, full length, His-tagged (CBF1, Saccharomyces cerevisiae, UniProt P17106, residues 1-351)
Sequence of UniProt P17106 (whole entry, looked up): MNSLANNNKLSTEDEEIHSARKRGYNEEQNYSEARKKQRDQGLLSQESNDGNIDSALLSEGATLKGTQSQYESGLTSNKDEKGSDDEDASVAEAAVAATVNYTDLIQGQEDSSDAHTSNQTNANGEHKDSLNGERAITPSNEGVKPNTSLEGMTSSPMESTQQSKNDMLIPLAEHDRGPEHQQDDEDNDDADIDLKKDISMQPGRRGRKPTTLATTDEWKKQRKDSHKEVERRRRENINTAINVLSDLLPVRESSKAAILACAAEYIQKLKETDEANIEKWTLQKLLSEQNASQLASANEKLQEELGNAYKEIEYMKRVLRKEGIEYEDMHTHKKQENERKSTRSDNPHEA
Notes: whole 60-bp probe, lowest competitor level
For `AGTGCCAGGTAAGTTGTCGTGGGTATCACCCGGAGA`, the fluorescence intensity was 60.4 a.u.
`CGGGGTTAAGTTTGGAACGTGGGTGGCTTGCAGCAG` gave a fluorescence intensity of 69.2 a.u.
For `TACAAATTGCCCGTCCACGTTCGTCGTTCTAACTTC`, the fluorescence intensity was 74.9 a.u.
`TGCGCAACAACTTTTCACGTGGGCTTATGTCTAGAA` has a fluorescence intensity of 966 a.u.
The fluorescence intensity of `CTTCTGTAAATTTGGCGCGTGGGTGGACGCGCCCCG` is reported as 75.1 a.u.
`CGTCCTAGTGATTGTCACACAACTTCCATGAGGAAG` gave a fluorescence intensity of 80.2 a.u.
With `TGTCACAGTAGTTATAGCTAAGGTCAATAAGTAGTT` the fluorescence intensity was 67.9 a.u.

Single results of other studies
`PhoQ, residues 284 288 289 292 302 303 SASVAL` gave a fold induction of 12 (PhoP, residues 12 14 15 18 19 SEGLL (Escherichia coli, UniProt P23836); Sort-seq, measured: YFP reporter; E. coli; PhoQ-PhoP variant library, together with: 10 µM Mg2+; reference: high Mg2+ state, higher = stronger signaling).

Excerpt of the above (sample 2):
`GTTCATTA` has an E-score of 0.166.
The E-score of `ATGTAAAT` is reported as 0.332.
